Assay results of several laboratories.
Every numbered part comes from another study and shows a few of its results, in no order.

Block 1 — method: RNA Bind-n-Seq; form: RNA; medium: in vitro; concentration: 365 nM; reference: no-protein control; direction: higher = stronger binding
Target: RNA binding protein fox-1 homolog 2, RRM domain, GST-SBP tag (RBFOX2, Homo sapiens, UniProt O43251-10, residues 100-194)
Notes: natural RNA segment, single round, ends assumed
Constant ends, left off below: GGGAGUUCUACAGUCCGACGAUC … UGGAAUUCUCGGGUGCCAA
Residues (chain): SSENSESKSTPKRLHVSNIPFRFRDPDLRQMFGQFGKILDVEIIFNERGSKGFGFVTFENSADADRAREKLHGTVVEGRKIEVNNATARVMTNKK
| Strand | RBNS enrichment (R) |
| --- | --- |
| CAUGCCGACUUGAUCUUUGAGCCCACUCGUCUGCAUUUGUUCUUUGGGAUUAUAUAAUCUAGGGCCAAGAAGUUUACUGCCUGUGGAGCGGGCAGGAACUCUAGCCACCU | 0.754 |
| AGCGUAAUGAUUAAGUUAUUCAUCACCAGGCUGUAAGCAAUAUCUUGAGUUUGUAGCUUAGAAUUGGGAGGAUACUUAACAUCUGGAAGACAAGUUCAUUUCAUCUUGAG | 0.396 |
| ACACCAGCUCUACUCUUUAGUAAAAUUGUAAAAGGCUGCCAUUAUGGACAUUAGGUAUCCCAACAUAACCAUCUGGAGUGUGUCCAGUUUGUUCUUCAUAGGACCAAUUU | 0.216 |
| UUAUUUUGCGCUGUGUAACUGCUGCCAGCUUCUCUCUUGGCCCUGCUCCCAGAUGGCGGUCUCCUGGCAGCCUCCCCUCAGUCUUCCUCCACCCGCUCUUCCUUCCCAGC | 0.491 |
| UCCUUUUCCACCCUUCUCCCCAGUGCCUUCCUCGUCCUGGUGGAGCUGAGGCCUACUCCUCCCCAGUCCAACACUGCCAAAAAUCUGUGUAUGUGCCAGGGGUCGGGGGU | 0.264 |
| AGGCCAAGUGAAAUCUAUGCCCUACGGGAGCCAUUCCCAAUCCUGAGUUUCUCAGACUUGGCAAUGGGGGUUCUGGCGGGGGUUGGAGUACAAAUCCUGCUCUGGUCUCU | 0.191 |
| UAUAUGUGUAAGUAAAGCCUGAAGUGUAGGGGGCCUUUGUUCUUGAAGCAGCCAGGGUCUCCUUGCCCUGGCCUUGGCCUUCCCUAGACUGUGUGGGGCUCAGCAUUGGG | 1.3 |
| UUUGCUGCUUUUGUUCGCAUUGGAACGUUGGACAUGCCAUAUGAUACUGGCUUAGUAAUCAAUACCAGUAAUUACCAUAGAACUUUAUCUGACUACCCAACCAUAUCAAA | 0.202 |
| CAGCCAGUCACUAAGAAAGACAGUCUGCCUGGCAGCUCCUGGUGAACCUGCCUUUCUGUGAAUGUGUCUGACUUAGAAUCACACUUUAUAAAUUAAUCCAGGUUGUGUUA | 0.536 |
| CUUUCAUAACAUAUUCUACAAGUUUCCUUAAGACUGUUGUUAUAGUCUGGCUGAACCCAUUUCCACCUGCAAAGUCUUGUGUUGUGUCUGCAGGCCACACCAGUGGCCAC | 0.626 |
| UUGAGGGGUUGAGGGGUUGAUCUGAGCUGGUGCCACUGCGAGCACAGCCUACAUGGUGAAUCCAGAGUGUGCCCGGUUCCACAUCACCUCUUCAUGGUCUGCUGUGCACA | 0.437 |
| UAUGACUGAGCUUUCUAUAGGAAUUUUAUUAAAGAAUGUUUAAUUUUGUUGUCCUUCUUAAUGUUCUCAGUCAAAUAAAUGAGUGAGCUGGUUUCGGCUGCUCUUGGAAU | 1.05 |

Block 2 — method: protein-binding microarray; form: double-stranded DNA, one strand shown; medium: in vitro; concentration: 940 nM top; notes: 60-bp whole probe; added: salmon DNA 0.4 mg/ml; reference: random background probes; direction: higher = stronger binding; constant ends, left off below: GCCTAGCAC … GTCTTGATTCGCTTGACGCTGCTG
Target: Interferon regulatory factor 5, full length, phosphomimetic (IRF5, Homo sapiens, UniProt Q13568-2, residues 1-514, S451D/S453D/S456D/S462D)
| Strand | fitted relative affinity [z-score] |
| --- | --- |
| GACGAACTGGGGTATCAAGACGTGCTA | 0.0854 |
| TCAGTTTTCATTATTGTACTGTGCTAG | 1.95 |
| GACGGTATCGACTTTCGCGACGTGCTA | 4.26 |
| GACGGCCTCGGACTGGGGACGTGCTAG | -0.759 |
| TTAGATTTCGGTTTCGATTAGTGCTAG | 9.44 |
| TCTAATATTCATTTTATTCAGTGCTAG | 0.529 |
| GACGAACTCGGGACTGGAGACGTGCTA | -0.496 |
| GACCGTATCGGGTTTCGGGACGTGCTA | 3.51 |
| TCACCTTTTAATTTTTAACTGTGCTAG | 1.01 |
| TTTCTTTTATGCTCTTTCTACGTGCTA | 4.45 |
| CCCACCATCTAGTTCTGCTTGTGCTAG | 0.786 |
| TTAGGTTTCCTTATGCTTTAGTGCTAG | 1.59 |
| GACGGTTTTCTTTCCCTGACGTGCTAG | 1.43 |
| TTAGAACTGAGTTTCGATCAGTGCTAG | 7.51 |
| GACGGACTGGATTATCGGGACGTGCTA | -0.447 |
| CTGTTAAAGAATTAAGAAGGGTGCTAG | -0.555 |
| TTAGGTATCGGGTATCGGTAAGTGCTA | 7.49 |
| AAGACCATCCTATGTAGATGTGTGCTA | -0.244 |
| TTAGGTTTCGACACTGGGATAGTGCTA | 7.99 |
| GACGGTACCGACTTTCGGGACGTGCTA | 0.581 |
| CCCACTTTCACTTCTCCCTTGTGCTAG | 5.49 |
| TCAACATTGTGCAATCTTACTGTGCTA | -0.0891 |
| TTAGGATTGGGTCTCGGTTAGTGCTAG | 1.9 |
| TCCTGTTTGATAATTTTTTTGTGCTAG | 1.11 |
| GACGGTTTCCTACTGGTGACGTGCTAG | 0.675 |

Block 3 — method: RNA Bind-n-Seq; form: RNA; medium: in vitro; concentration: 1 µM; notes: whole 134-nt RNA, ends assumed; added: 150 mM KCl; reference: input library; direction: higher = stronger binding
Target: Ras GTPase-activating protein-binding protein 1, C-terminal RGG region (G3BP1, Homo sapiens, UniProt Q13283)
Sequence of UniProt Q13283 (whole entry, looked up): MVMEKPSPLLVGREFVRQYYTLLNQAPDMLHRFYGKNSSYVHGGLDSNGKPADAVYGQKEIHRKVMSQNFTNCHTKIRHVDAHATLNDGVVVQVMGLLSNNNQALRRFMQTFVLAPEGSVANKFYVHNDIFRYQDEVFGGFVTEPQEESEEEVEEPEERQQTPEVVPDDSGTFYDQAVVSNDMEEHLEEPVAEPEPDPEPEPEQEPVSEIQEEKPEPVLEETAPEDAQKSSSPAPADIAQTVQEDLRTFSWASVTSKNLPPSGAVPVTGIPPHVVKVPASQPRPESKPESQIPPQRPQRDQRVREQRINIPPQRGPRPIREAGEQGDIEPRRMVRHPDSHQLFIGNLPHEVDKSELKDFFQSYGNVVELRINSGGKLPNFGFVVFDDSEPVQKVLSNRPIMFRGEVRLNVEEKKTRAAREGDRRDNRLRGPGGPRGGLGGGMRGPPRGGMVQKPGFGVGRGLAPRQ
Constant ends, left off below: GGGAGUUCUACAGUCCGACGAUC … UGGAAUUCUCGGGUGUCAAGG
| Strand | log2 enrichment |
| --- | --- |
| CACAGACAACACGCACCCACACAGACACAGAGGGAAGGGGUUGGGAUGGGGACAGGGUGCACAGCAGGGCGGGGUAGGAACCCAGCCCCU | -0.931 |
| CCUGUGCUACACAUCGUAUGUACCGAAUCGGGUUUUUUUGGGUUUUUUUGGGAAAAAGGGAAAGUAUUAUGUUACGCCGUUCGGAUCUGC | -1.92 |
| AGUCCUGUGCUACACAUCGUAUGUACCGAAUCGGAAAAAGGGGAAAAAGGAAAAAGGGAAAGUAUUAUGUUACGCCGUUCGGAUCUGCAC | -1.71 |
| CUCAAGUCCUGUGCUACACAUCGUAUGUACCGAAUCGGGCCGGGGCCGGCCGGAAAGUAUUAUGUUACGCCGUUCGGAUCUGCACUUCCA | -0.945 |
| UGGGAGGUGGAUUUUGUUUAUUUUUUUAGCUCAUUUCCAGGGGUGGGAAUUUUUUUUUAAUAUGUGUCAUGAAUAAAGGUGUUUUUGAAA | 2.98 |
| CAAGUCCUGUGCUACACAUCGUAUGUACCGAAUCGGGUUUUGGUUUUGGUUUUGGGAAAGUAUUAUGUUACGCCGUUCGGAUCUGCACUU | -1.77 |
| GCAGGAAGUAAAAACAAAUGGAAAUGCUUCGGAUAGUGGCAGGGGUGGGGGUUGCUAAGGAAAGGGUGGGAUGGGAGUGGGUAAACAGUU | 0.117 |
| UACUAUGAAGCCUUGUGCAAAUCCCUCGACUGGCAGAUAGACGUGGACCUACUCAAUAAAAUGAAGAAGGCAAAUGAAGAUGAGUUGAAG | -1.54 |
| GCAGGAAGUAAAAACAAAUGGAAAUGCUUCGGAUAGUGGCAGGGGUGGGGGUUGCUAAGGAAAGGGUGGGAAAAGAGUGGGUAAAGAGUU | 2.33 |
| UGGCCGUGGUGGCAUGCGGGGAGGAAGAGGUGGCCUCAUGGAUCGUGGUGGUCCCGGUGGAAUGUUCAGAGGUGGCCGUGGUGGAGACAG | 2.35 |
| AUUUUUUGUAUCAAGUCCCUGAAUGGAAGUAUGACGUUGGGUCCCUCUGAAGUUUAAUUCUGAGUUCUCAUUAAAAGAAAUUUGCUUUCA | -2.01 |
| UGGGAGGUGGAUUUUGUUUAUUUUUUUAGCUCAUUUCCAGGGGUGGGAAGUUUUUUUUAAUAUGUGUCAUGAAUAAAGUUGUUUUUGAAA | 3.82 |
| AGUCCUGUGCUACACAUCGUAUGUACCGAAUCGGGGAAAGGGGAGGGGUUUUUGGGGAAAGUAUUAUGUUACGCCGUUCGGAUCUGCACU | 2.03 |
| CUCAAGUCCUGUGCUACACAUCGUAUGUACCGAAUCGGUGGUUUGGAAAAAGGAAAGUAUUAUGUUACGCCGUUCGGAUCUGCACUUCCA | -1.11 |

Block 4 — method: protein binding microarray; form: double-stranded DNA, one strand shown; medium: in vitro; concentration: not given; reference: not given; direction: higher = stronger binding
Target: Histone acetyltransferase KAT6A, winged helix 1, GST fusion (KAT6A, Homo sapiens, UniProt Q92794, residues 1-85)
Notes: 8-mer, flanks averaged, mean of 2 arrays, mostly near background
Target sequence (chain): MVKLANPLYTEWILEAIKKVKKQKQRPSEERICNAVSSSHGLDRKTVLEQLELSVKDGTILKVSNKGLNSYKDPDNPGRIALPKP
| Strand | E-score |
| --- | --- |
| CATTGTCA | -0.165 |
| CGTTATGC | 0.0134 |
| ACCTATCC | -0.112 |
| GTGAGGCA | 0.0131 |
| ACGATCCG | 0.0892 |
| GTCGATAA | 0.0316 |
| AGCGTGGA | 0.253 |
| GACAGGCC | -0.0466 |
| CCGTGCTC | 0.105 |
| ATCTTTGA | -0.132 |
| TCAAAGGA | -0.0962 |
| ATCATATC | 0.0396 |
| CCTTTGCG | 0.155 |
| CAATACTC | -0.143 |
| CATATTAG | -0.0753 |
| ATCATAAA | -0.222 |
| CAAAGGCG | 0.142 |
| CCTTCAGA | -0.157 |

Repeated from above (block 2):
| Strand | fitted relative affinity [z-score] |
| --- | --- |
| GACGGTATCGACTTTCGCGACGTGCTA | 4.26 |
| TTAGAACTGAGTTTCGATCAGTGCTAG | 7.51 |
| GACGGACTGGATTATCGGGACGTGCTA | -0.447 |
| GACGGTTTTCTTTCCCTGACGTGCTAG | 1.43 |
| GACGGCCTCGGACTGGGGACGTGCTAG | -0.759 |
| TCACCTTTTAATTTTTAACTGTGCTAG | 1.01 |
| CCCACTTTCACTTCTCCCTTGTGCTAG | 5.49 |
| TTAGGTTTCGACACTGGGATAGTGCTA | 7.99 |
| TCTAATATTCATTTTATTCAGTGCTAG | 0.529 |
| TTAGGTTTCCTTATGCTTTAGTGCTAG | 1.59 |
